Measurements collected from several papers.
Every numbered part comes from another study and shows a few of its results, in no order. ± marks the error that the study gave.
Chain of UniProt Q5XXP4 (whole entry, looked up): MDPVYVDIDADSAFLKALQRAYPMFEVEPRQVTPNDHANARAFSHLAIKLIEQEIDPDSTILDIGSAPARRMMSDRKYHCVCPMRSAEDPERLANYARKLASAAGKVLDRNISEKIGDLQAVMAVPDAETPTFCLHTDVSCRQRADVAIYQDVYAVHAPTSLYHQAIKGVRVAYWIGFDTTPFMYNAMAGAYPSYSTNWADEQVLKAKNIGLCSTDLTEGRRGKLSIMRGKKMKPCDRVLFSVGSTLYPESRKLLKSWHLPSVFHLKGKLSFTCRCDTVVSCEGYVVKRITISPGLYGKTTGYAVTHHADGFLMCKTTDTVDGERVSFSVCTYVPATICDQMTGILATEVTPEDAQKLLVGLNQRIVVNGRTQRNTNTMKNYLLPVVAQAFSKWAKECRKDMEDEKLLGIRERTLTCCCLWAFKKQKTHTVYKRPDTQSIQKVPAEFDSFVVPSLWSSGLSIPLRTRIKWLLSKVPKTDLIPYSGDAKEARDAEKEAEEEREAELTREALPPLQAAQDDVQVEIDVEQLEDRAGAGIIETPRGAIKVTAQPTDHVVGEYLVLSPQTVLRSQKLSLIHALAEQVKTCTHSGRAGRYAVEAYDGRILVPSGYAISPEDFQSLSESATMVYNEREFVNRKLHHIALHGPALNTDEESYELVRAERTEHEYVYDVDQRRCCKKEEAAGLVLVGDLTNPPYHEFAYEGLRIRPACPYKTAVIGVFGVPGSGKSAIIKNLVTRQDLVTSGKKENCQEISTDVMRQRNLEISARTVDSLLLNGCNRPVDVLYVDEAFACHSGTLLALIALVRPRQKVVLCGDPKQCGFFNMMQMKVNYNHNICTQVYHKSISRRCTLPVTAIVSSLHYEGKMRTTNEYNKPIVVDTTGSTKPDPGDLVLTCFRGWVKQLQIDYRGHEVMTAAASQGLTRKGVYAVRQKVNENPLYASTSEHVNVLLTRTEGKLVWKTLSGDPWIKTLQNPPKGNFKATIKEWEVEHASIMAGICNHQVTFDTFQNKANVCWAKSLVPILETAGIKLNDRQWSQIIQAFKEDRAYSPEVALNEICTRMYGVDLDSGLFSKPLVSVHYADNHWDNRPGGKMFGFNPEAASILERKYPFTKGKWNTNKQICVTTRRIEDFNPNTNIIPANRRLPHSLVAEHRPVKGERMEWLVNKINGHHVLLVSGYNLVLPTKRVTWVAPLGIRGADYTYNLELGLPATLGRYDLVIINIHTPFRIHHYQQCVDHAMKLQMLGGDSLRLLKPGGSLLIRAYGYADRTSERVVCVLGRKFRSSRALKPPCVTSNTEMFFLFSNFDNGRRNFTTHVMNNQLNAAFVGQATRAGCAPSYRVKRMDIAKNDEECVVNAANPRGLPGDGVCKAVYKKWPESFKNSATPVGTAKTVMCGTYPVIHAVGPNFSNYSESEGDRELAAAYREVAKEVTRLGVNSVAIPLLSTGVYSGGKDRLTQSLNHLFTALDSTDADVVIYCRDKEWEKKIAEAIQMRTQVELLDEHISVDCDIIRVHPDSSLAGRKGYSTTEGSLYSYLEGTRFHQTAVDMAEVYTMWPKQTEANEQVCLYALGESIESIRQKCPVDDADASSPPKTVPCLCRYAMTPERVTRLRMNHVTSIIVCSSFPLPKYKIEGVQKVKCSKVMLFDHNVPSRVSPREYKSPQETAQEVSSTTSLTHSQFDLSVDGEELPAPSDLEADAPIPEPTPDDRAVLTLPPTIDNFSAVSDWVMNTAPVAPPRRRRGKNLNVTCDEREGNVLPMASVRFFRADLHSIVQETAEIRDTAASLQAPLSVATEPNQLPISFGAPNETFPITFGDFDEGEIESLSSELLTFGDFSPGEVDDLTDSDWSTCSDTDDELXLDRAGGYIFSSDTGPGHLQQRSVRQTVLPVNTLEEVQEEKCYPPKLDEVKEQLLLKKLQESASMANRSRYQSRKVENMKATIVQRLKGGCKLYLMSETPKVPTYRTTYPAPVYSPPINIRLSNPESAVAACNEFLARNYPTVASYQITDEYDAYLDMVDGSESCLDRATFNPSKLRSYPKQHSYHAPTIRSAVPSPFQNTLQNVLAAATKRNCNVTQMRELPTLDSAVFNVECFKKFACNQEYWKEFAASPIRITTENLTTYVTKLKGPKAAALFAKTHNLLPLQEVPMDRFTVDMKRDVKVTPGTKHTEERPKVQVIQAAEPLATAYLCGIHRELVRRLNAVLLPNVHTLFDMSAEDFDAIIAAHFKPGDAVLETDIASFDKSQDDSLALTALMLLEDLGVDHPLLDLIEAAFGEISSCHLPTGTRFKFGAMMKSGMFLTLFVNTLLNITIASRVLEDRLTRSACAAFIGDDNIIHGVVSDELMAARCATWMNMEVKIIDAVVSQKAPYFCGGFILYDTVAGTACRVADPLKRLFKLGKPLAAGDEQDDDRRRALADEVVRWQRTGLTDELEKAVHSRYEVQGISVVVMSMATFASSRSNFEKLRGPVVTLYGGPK
Chain of UniProt P11712 (whole entry, looked up): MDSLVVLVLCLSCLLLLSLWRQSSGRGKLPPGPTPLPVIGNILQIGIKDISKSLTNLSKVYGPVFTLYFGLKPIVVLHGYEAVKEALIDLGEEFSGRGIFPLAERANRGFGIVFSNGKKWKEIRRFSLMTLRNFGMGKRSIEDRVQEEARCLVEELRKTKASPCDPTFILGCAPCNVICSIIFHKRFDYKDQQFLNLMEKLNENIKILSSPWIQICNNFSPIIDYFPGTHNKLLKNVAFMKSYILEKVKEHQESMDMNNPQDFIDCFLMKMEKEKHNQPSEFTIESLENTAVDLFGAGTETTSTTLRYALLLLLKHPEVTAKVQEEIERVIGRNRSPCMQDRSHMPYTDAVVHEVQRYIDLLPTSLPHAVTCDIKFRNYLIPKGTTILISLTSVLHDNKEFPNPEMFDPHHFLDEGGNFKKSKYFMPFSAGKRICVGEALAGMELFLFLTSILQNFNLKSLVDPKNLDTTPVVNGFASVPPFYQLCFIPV
Chain of UniProt Q6Q1S2 (whole entry, looked up): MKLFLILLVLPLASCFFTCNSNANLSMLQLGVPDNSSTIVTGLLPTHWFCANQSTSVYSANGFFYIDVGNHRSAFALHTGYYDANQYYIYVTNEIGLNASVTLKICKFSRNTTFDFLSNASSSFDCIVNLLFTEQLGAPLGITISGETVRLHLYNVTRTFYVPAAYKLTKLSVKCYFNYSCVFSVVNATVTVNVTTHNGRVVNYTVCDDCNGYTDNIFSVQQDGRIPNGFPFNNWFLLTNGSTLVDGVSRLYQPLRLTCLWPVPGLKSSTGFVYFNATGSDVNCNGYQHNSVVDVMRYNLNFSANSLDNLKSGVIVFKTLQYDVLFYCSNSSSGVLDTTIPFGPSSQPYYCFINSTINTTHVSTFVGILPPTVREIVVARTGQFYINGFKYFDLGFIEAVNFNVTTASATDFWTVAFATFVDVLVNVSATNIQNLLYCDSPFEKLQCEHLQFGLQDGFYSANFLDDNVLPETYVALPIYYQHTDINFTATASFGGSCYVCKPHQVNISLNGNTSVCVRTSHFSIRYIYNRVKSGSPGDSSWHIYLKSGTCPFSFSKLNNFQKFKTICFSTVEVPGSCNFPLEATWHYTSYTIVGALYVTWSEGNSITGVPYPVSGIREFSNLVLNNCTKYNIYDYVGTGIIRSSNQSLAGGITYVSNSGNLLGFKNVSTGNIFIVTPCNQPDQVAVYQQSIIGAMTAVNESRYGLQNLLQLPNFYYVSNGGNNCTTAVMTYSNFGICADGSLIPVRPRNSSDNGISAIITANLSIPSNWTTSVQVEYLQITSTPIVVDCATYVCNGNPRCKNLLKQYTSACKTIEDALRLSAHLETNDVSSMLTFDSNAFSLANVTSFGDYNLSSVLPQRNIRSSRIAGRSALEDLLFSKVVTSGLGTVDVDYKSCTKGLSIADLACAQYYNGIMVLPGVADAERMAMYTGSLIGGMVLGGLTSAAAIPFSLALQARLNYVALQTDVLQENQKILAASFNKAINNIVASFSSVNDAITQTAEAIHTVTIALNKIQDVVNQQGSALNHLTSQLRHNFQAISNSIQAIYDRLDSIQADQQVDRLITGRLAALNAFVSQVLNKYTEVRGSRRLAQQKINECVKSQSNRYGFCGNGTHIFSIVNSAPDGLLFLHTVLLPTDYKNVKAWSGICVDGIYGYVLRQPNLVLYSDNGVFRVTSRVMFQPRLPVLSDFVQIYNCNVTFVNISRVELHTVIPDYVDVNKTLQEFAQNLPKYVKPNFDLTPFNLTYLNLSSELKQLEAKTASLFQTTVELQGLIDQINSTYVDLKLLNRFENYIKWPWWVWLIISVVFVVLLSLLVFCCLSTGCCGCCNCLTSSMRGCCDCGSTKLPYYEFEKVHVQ

Study 1
Target: Replicase polyprotein 1ab, polymerase (rep, Severe acute respiratory syndrome coronavirus 2, UniProt P0DTD1)
Observed: enzyme activity
Mode: inhibitor
Concentration: 20 µM
For `CCCCc1nc(C)c(CC(=S)N(C)C)c(=O)n1Cc1ccc(-c2ccccc2-c2nnn[nH]2)cc1`, the inhibition was 40.3%.
`CC1(C)CNc2cc(NC(=O)c3cccnc3NCc3ccncc3)ccc21` has an inhibition of 4.39%.
The inhibition of `COc1c(N2CCNC(C)C2)c(F)cc2c(=O)c(C(=O)O)cn(C3CC3)c12` (centres unmarked) is reported as -0.67%.
`CC1(C)S[C@@H]2[C@H](N3C(=O)[C@@H](c4ccccc4)NC3(C)C)C(=O)N2[C@H]1C(=O)O` has an inhibition of 15.1%.
For `CN1C(=O)N(c2cc(Cl)cc(Cl)c2)C(=O)[C@]12CN(Cc1cc(C(=O)O)cs1)C[C@H]2c1ccc(C#N)cc1`, the inhibition was -11.9%.
With `CC(C)(C)NCC(O)c1cc(Br)no1` (centres unmarked) the inhibition was 0.51%.
For `O=c1[nH]c2ccccc2n1C1CCN(CCOc2ccccc2)CC1`, the inhibition was -1.38%.
`Cc1nc(N)sc1CCN` has an inhibition of 0.53%.
`COc1cc(CN2CCN(c3ccc(F)cc3)CC2)cc(OC)c1OC` has an inhibition of 4.32%.
With `C#Cc1cccc2c1c(C(=O)c1ccc(Cn3c(C)nc4cnccc43)c(F)c1)cn2C(=O)N(C)C` the inhibition was -7%.
For `Nc1cc(C(F)(F)F)c(-c2cc(N3CCOCC3)nc(N3CCOCC3)n2)cn1`, the inhibition was -2.53%.
With `CC(C)c1nc(CN(C)C(=O)N[C@H](C(=O)N[C@@H](Cc2ccccc2)C[C@H](O)[C@H](Cc2ccccc2)NC(=O)OCc2cncs2)C(C)C)cs1` the inhibition was 3.55%.
`C[C@]12CC[C@@H]3c4ccc(O)cc4C[C@@H](CCCCCCCCC[S+]([O-])CCCC(F)(F)C(F)(F)F)[C@H]3[C@@H]1CC[C@@H]2O` (some centres unmarked) gave an inhibition of 0.98%.
With `Cc1ccc(Sc2cncc3sc(C(N)=O)cc23)cc1` the inhibition was -0.74%.
`O=C1C[C@@H](c2ccc(O)cc2)Oc2cc(O)ccc21` has an inhibition of 3.44%.
`CCCCCCCCCCCCCCCCCCOC[C@H](COP(=O)([O-])OCC[N+](C)(C)C)OC` gave an inhibition of -5.28%.
`CCOC(=O)NNc1nncc2ccccc12` has an inhibition of 15.3%.
The inhibition of `Cc1cc(NC(=O)C2=C(O)c3ccccc3S(=O)(=O)N2C)no1` is reported as -0.05%.
The inhibition of `C[N+]1(C)[C@@H]2CC[C@H]1C[C@@H](OC(=O)C(O)c1ccccc1)C2` (some centres unmarked) is reported as 5.96%.
`N#CC(=C(/N)Sc1ccccc1N)/C(C#N)=C(\N)Sc1ccccc1N` gave an inhibition of 3.91%.
With `C[C@H]1CNCCCN1S(=O)(=O)c1cccc2cncc(F)c12` the inhibition was 2.61%.
`C[C@@]12C[C@@]3(O)O[C@@H](O1)[C@]1(COC(=O)c4ccccc4)[C@H]3C[C@@]12O[C@@H]1O[C@H](CO)[C@@H](O)[C@H](O)[C@H]1O` has an inhibition of -2.93%.
`C[C@]12CCC(=O)C=C1CC[C@@H]1[C@@H]2[C@@H](O)C[C@@]2(C)[C@H]1CC[C@]2(O)C(=O)COP(=O)(O)O` has an inhibition of 30.2%.
`COc1cc(N)cn[n+]1-c1ccccc1` gave an inhibition of 3.35%.
For `COc1cc2nc(N3CCN(C(=O)COc4c(OC)cccc4C(C)C)CC3)nc(N)c2cc1OC`, the inhibition was -7.58%.

Study 2
SMILES: O=C(c1cccs1)c1no[n+]([O-])c1C(=O)c1cccs1
rep main protease: Replicase polyprotein 1ab, main protease (rep, Severe acute respiratory syndrome coronavirus 2, UniProt P0DTD1)
For rep main protease; enzyme activity; 20 µM, with DTT: inhibition read 98.6%.
It gave -47.4% for inhibition (SARS-CoV-2; cytopathic effect; Vero E6; 10 µM, 96 h).
It gave 108% for inhibition (rep main protease; enzyme activity, inhibitor; 20 µM, hit confirmation).

Study 3
Cell line: HEK-293T/ACE2
Concentration: concentration not given
Time: 16 (unit not given)
Baseline: vehicle
`CCCCN1CCCCC1C(=O)Nc1c(C)cccc1C` (centres unmarked) has a viability of 95.4%.
`CCCNC(=O)NS(=O)(=O)c1ccc(Cl)cc1` has a viability of 104%.
`Nc1ncn([C@H]2C[C@H](O)[C@@H](CO)O2)c(=O)n1` gave a viability of 97.7%.

Single results of other studies
`CCN(CC)CCO[C@H]1CC[C@@]2(C)C(=CC[C@@H]3[C@@H]2CC[C@]2(C)C(=O)CC[C@@H]32)C1` has an IC50 of 55 nM (SARS-CoV-2; viral replication, RT-qPCR; A549 expressing ACE2).
With `Cc1cc(/C=C/C#N)cc(C)c1-n1cnc2cnc(Nc3ccc4cc(C#N)ccc4c3)nc21` the EC50 was 65.9 ± 6.4 nM (HIV-1; viral replication, single-round infection; RT mutant K101P).
`CCCOc1ccc(C(=O)CCN2CCCCC2)cc1` has an EC50 of greater than 100000 nM (SARS-CoV-2; viral replication, high-content imaging screen; cell-based).
With `C=CC(=O)Nc1cc(C)nc(N2CCOCC2)n1` the IC50 was 33000 ± 5000 nM (Polyprotein P1234, nsP2 protease domain (Chikungunya virus, UniProt Q5XXP4); enzyme activity, inhibitor, FRET; 90 min, 30 min preincubation).
`CC[C@H](C)[C@H](NC(=O)[C@H](CC(C)C)NC(=O)[C@H](Cc1c[nH]c2ccccc12)NC(=O)[C@H](CCC(N)=O)NC(=O)[C@@H](NC(=O)[C@H](Cc1ccccc1)NC(=O)[C@H](C)NC(=O)[C@H](CCCCNC(=O)COCCOCCNC(=O)COCCOCCNC(=O)CC[C@H](NC(=O)CCCCCCCCCCCCCCCCCCC(=O)O)C(=O)O)NC(=O)[C@H](CCC(N)=O)NC(=O)[C@H](C)NC(=O)[C@@H](NC(=O)[C@H](CCCCN)NC(=O)[C@H](CC(=O)O)NC(=O)[C@H](CC(C)C)NC(=O)C(C)(C)NC(=O)[C@@H](NC(=O)[C@H](CO)NC(=O)[C@H](Cc1ccc(O)cc1)NC(=O)[C@H](CC(=O)O)NC(=O)[C@H](CO)NC(=O)[C@@H](NC(=O)[C@H](Cc1ccccc1)NC(=O)[C@@H](NC(=O)CNC(=O)[C@H](CCC(=O)O)NC(=O)C(C)(C)NC(=O)[C@@H](N)Cc1ccc(O)cc1)[C@@H](C)O)[C@@H](C)O)[C@@H](C)CC)[C@@H](C)CC)C(C)C)C(=O)N[C@@H](C)C(=O)NCC(=O)NCC(=O)N1CCC[C@H]1C(=O)N[C@@H](CO)C(=O)N[C@@H](CO)C(=O)NCC(=O)N[C@@H](C)C(=O)N1CCC[C@H]1C(=O)N1CCC[C@H]1C(=O)N1CCC[C@H]1C(=O)N[C@@H](CO)C(N)=O` — result for “injection site reaction”: 20% (healthy human; 1.0 mg, single ascending dose).
For `Cn1cnc(Cn2c(=O)[nH]/c(=N\c3cc4cn(C)nc4cc3Cl)n(Cc3cc(F)c(F)cc3F)c2=O)n1`, the IC50 was greater than 100000 nM (Cytochrome P450 2C9 (CYP2C9, Homo sapiens, UniProt P11712); inhibitor; human liver microsomes; 0 min preincubation, added: diclofenac 12 µM).
`C1=C(c2ccc(CN3CCCCC3)cc2)N2CCN=C2c2ccccc21` gave an EC90 of 1410 nM (SARS-CoV-2; viral replication; Huh-7-ACE2, USA-WA1/2020).
With `CN(C)CCOC(C)(c1ccccc1)c1ccccn1` (centres unmarked) the IC50 was greater than 10000 nM (SARS-CoV-2; viral replication; A549 expressing ACE2; inactive set pIC50 4).
For `Cn1cnc(Cn2c(=O)[nH]/c(=N\c3cc4cn(C)nc4cc3Cl)n(Cc3cc(F)c(F)cc3F)c2=O)n1`, “patients with adverse event” read 0% (human, normal renal function; oral, 375 mg, vessel puncture site haemorrhage TEAE, Mild severity).
The inhibition of `COc1ccc(-c2oc3ccccc3c(=O)c2N)cc1N` is reported as -1.05% (Replicase polyprotein 1ab, main protease (rep, Severe acute respiratory syndrome coronavirus 2, UniProt P0DTD1); viral replication, mKate2 reporter; SARS-CoV-2; 20 µM).
`CC[C@H](C)[C@H](NC(=O)[C@H](CCC(=O)O)NC(=O)[C@H](CCCCN)NC(=O)[C@H](CC(C)C)NC(=O)[C@H](CC(=O)O)NC(=O)[C@@H](NC(=O)[C@H](Cc1ccc(O)cc1)NC(=O)[C@H](CO)NC(=O)[C@H](CCC(=O)O)NC(=O)[C@H](CCC(=O)O)NC(=O)[C@H](CC(C)C)NC(=O)[C@H](CCCCN)NC(=O)[C@H](CCCCN)NC(=O)[C@@H](NC(=O)[C@H](C)NC(=O)[C@H](CCC(=O)O)NC(=O)[C@H](CCC(=O)O)NC(=O)[C@H](CC(C)C)NC(=O)[C@H](CCCCN)NC(=O)[C@H](CCCCN)NC(=O)[C@H](CCSC)NC(=O)[C@H](CCC(=O)O)NC(=O)[C@H](Cc1ccc(O)cc1)NC(=O)[C@H](CCC(=O)O)NC(=O)[C@H](CC(C)C)NC(=O)[C@H](CC(=O)O)NC(=O)[C@H](CC(C)C)NC(=O)[C@H](Cc1ccccc1)NC(=O)[C@@H](NC(=O)[C@@H](NC(=O)[C@H](CC(N)=O)NC(=O)[C@@H](NC(=O)[C@H](CCC(N)=O)NC(=O)[C@H](CC(=O)O)NC(=O)[C@H](CC(C)C)NC(=O)[C@@H](N)CO)[C@@H](C)CC)C(C)C)[C@@H](C)O)[C@@H](C)CC)[C@@H](C)CC)C(=O)O` has an IC50 of 780 ± 180 nM (Spike glycoprotein (S, Human coronavirus NL63, UniProt Q6Q1S2)).
`CSCC[C@H](NC(=O)[C@H](CCCNC(=N)N)NC(=O)[C@H](Cc1ccccc1)NC(=O)[C@H](CS)NC(=O)[C@H](C)NC(=O)[C@@H](NC(=O)[C@@H](NC(=O)[C@H](C)NC(=O)[C@H](CCCNC(=N)N)NC(=O)[C@H](CCCNC(=N)N)NC(=O)[C@H](CCCNC(=N)N)NC(=O)[C@H](CCC(N)=O)NC(=O)[C@H](CCCCN)NC(=O)[C@H](CO)NC(=O)[C@H](CC(C)C)NC(=O)[C@H](CC(C)C)NC(=O)[C@H](CCCCN)NC(=O)[C@H](Cc1c[nH]cn1)NC(=O)[C@H](Cc1c[nH]c2ccccc12)NC(=O)[C@@H](NC(=O)[C@H](C)NC(=O)[C@H](CCCCN)NC(=O)[C@H](CCCCN)NC(=O)[C@H](CO)NC(=O)[C@H](CCCCN)NC(C)=O)C(C)C)C(C)C)C(C)C)C(=O)N[C@H](C(=O)N1CCC[C@H]1C(=O)N[C@@H](CC(C)C)C(=O)N[C@@H](Cc1ccc(O)cc1)C(=O)N[C@@H](CC(N)=O)C(N)=O)[C@@H](C)O` has an apparent ΔG2 of -16.5 ± 0.18 kcal/mol (calmodulin 1-148 sites I and II; calcium binding, Phe fluorescence titration; 12 µM, pH 7.4, 22 °C, added: 6 µM calmodulin).
`O=C(Nc1ccc(N2CCOCC2)cc1)c1cc2occc2n1Cc1ccc(Cl)cc1` has an EC50 of greater than 100000 nM (Zaire ebolavirus; pseudovirus entry; A549).
`C[C@@H]1CN(c2ncc(C(O)CO)cc2Cl)CCN1c1nc2c(-c3cc(F)c(F)c(F)c3)cc(C(F)(F)F)cc2[nH]1` (some centres unmarked) gave an EC90 of greater than 2500 nM (SARS-CoV-2; viral replication; Huh-7-ACE2, USA-WA1/2020).
`O=[N+]([O-])c1ccc(O)c2ncccc12` has an EC50 of 4100 ± 700 nM (SARS-CoV-2; viral replication; Omicron).
`OCc1cc(C(O)CNCCCCCCOCCCCc2ccccc2)ccc1O` (centres unmarked) gave an EC50 of 19100 nM (SARS-CoV-2; viral replication, GFP plate reader screen; cell-based).
`CCC(CC)O[C@@H]1C=C(C(=O)O)C[C@H](N)[C@H]1NC(C)=O` gave an IC50 of 0.14 ± 0.01 nM (neuraminidase (Influenza A virus, UniProt C6ELZ0); human reference strains; mean).
`CC[C@H](C)[C@H](NC(=O)[C@@H](NC(=O)[C@H](CC(=O)O)NC(=O)[C@H](CC(C)C)NC(=O)[C@H](CO)NC(=O)[C@@H](NC(=O)[C@H](C)N)[C@@H](C)O)C(C)C)C(=O)N[C@@H](CC(N)=O)C(=O)N[C@@H](Cc1ccc(O)cc1)C(=O)O` has an IC50 of 6.8 nM (HLA class I histocompatibility antigen, A alpha chain, allele A*11:01 (Homo sapiens, UniProt P04439); biochemical).
`CCC(CC)O[C@@H]1C=C(C(=O)O)C[C@H](N)[C@H]1NC(C)=O` gave an IC50 of 2.01 nM (neuraminidase (Influenza A virus, UniProt A0A088CBR8)).
